Experimental data from different studies.
Parts stem from different laboratories: compare values within a part only.
UniProt Q16513, sequence (whole entry, looked up): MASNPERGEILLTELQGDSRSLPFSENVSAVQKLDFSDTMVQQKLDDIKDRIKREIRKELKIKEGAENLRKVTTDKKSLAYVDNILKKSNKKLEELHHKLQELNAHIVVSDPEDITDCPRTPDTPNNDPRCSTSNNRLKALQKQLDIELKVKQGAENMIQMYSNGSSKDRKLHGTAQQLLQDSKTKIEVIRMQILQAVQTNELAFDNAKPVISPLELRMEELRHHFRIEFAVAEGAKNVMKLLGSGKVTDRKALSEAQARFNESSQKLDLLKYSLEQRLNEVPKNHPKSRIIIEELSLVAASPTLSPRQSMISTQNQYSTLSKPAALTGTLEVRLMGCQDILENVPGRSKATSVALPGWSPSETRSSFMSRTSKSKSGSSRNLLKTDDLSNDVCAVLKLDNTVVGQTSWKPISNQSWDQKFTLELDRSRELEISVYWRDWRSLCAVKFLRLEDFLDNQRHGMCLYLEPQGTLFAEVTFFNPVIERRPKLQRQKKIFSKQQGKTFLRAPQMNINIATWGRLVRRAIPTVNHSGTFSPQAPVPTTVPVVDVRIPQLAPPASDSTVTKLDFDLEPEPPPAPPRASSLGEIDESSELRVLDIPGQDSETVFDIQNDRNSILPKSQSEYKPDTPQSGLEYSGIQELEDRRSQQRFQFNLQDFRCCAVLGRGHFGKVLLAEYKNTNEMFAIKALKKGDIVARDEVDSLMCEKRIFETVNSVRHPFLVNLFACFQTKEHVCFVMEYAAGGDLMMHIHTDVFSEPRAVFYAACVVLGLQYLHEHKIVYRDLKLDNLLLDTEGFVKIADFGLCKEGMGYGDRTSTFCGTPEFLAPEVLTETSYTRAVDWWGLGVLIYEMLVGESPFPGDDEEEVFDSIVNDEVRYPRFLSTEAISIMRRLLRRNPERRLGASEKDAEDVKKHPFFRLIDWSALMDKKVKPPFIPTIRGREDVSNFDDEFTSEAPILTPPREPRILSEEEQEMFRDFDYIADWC
UniProt Q16288, sequence (whole entry, looked up): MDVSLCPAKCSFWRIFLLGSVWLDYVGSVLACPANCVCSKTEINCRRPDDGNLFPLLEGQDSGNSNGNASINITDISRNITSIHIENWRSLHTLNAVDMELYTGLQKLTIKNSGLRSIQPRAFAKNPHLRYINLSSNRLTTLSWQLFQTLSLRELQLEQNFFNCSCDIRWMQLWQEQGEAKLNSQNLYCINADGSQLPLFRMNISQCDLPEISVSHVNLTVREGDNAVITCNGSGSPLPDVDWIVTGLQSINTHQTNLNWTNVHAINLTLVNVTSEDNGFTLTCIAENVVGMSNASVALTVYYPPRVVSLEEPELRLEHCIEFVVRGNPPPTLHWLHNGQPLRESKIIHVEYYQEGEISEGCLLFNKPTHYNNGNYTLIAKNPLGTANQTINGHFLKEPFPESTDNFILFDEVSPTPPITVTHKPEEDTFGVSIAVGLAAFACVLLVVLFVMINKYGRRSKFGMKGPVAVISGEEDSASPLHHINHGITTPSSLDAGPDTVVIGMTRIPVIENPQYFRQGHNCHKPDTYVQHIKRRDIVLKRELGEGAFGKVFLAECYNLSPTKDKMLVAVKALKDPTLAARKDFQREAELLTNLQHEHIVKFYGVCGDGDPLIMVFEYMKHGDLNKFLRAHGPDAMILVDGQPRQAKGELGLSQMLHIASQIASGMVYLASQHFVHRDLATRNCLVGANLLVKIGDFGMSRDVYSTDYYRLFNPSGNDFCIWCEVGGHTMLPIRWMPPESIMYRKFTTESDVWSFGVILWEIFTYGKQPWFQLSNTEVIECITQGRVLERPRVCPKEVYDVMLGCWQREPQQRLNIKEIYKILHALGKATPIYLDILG
UniProt Q9Y2I7, sequence (whole entry, looked up): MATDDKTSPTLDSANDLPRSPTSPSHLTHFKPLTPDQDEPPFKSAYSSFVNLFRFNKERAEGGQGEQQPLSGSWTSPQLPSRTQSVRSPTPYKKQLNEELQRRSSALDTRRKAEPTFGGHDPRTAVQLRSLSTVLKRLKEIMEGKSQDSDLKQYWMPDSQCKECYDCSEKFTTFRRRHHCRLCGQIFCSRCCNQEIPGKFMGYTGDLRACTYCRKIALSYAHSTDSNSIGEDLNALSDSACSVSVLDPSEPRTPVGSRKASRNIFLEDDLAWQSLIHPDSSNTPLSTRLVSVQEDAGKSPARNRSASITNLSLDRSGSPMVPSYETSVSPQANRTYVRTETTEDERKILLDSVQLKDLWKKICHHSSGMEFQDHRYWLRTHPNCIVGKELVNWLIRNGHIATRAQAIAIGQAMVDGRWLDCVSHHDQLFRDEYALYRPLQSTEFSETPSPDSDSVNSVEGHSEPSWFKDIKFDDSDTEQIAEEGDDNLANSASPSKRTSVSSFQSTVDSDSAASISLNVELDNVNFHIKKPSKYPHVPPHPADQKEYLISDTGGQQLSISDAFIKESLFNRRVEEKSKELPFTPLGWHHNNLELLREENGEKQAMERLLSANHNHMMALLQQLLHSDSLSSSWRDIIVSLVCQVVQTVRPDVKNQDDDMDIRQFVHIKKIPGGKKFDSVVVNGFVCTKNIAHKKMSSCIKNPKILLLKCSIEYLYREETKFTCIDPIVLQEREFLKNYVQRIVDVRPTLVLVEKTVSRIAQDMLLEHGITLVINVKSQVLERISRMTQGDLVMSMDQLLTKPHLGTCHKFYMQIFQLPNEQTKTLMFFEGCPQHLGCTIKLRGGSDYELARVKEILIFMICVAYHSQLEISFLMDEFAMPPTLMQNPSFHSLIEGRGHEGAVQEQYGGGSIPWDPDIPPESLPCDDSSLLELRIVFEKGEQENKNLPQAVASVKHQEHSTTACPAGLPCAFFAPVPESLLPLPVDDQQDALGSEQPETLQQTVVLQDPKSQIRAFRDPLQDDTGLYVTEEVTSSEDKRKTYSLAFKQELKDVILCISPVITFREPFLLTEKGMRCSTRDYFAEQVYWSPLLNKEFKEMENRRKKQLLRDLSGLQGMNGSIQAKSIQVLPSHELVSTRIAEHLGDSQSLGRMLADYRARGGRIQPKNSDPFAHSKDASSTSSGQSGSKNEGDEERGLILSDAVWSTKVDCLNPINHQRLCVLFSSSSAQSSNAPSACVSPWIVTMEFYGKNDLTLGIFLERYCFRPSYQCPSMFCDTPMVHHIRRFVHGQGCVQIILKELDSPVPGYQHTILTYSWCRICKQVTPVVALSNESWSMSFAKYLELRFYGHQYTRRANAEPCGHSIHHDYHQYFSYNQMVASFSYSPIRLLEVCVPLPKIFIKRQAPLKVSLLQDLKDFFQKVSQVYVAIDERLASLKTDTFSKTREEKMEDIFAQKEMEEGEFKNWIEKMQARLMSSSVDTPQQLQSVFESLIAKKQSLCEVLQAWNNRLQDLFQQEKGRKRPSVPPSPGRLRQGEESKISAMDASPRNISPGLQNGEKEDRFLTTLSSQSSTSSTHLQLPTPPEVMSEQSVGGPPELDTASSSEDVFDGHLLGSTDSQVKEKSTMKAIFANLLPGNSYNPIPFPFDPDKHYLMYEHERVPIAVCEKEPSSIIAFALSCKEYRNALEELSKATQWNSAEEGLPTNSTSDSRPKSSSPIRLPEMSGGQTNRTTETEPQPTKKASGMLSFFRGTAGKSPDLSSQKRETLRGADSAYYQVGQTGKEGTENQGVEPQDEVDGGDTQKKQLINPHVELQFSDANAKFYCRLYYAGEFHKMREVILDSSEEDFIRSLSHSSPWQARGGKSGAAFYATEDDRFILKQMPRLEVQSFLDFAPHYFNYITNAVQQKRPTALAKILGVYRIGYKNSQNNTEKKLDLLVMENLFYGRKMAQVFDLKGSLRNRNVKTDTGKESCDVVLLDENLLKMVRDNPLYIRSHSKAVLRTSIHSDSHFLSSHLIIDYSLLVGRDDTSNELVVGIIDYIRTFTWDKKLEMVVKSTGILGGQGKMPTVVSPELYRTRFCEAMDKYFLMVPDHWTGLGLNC
UniProt Q9Y2U5, sequence (whole entry, looked up): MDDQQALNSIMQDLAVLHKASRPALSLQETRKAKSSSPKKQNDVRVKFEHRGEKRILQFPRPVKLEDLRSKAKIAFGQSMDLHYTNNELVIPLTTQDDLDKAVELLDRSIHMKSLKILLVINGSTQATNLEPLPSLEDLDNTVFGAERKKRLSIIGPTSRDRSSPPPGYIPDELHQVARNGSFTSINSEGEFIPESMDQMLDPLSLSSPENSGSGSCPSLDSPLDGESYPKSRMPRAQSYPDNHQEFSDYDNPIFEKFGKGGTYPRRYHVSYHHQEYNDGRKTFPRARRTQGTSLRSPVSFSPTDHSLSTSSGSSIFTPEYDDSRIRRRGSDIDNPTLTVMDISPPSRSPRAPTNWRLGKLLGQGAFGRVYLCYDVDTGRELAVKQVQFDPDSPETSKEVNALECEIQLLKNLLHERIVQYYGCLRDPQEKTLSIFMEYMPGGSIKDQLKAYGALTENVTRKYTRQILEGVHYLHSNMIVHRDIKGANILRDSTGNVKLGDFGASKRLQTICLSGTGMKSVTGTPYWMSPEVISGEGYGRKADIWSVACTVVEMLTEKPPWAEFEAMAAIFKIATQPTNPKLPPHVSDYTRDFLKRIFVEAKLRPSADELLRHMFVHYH
UniProt Q13188, sequence (whole entry, looked up): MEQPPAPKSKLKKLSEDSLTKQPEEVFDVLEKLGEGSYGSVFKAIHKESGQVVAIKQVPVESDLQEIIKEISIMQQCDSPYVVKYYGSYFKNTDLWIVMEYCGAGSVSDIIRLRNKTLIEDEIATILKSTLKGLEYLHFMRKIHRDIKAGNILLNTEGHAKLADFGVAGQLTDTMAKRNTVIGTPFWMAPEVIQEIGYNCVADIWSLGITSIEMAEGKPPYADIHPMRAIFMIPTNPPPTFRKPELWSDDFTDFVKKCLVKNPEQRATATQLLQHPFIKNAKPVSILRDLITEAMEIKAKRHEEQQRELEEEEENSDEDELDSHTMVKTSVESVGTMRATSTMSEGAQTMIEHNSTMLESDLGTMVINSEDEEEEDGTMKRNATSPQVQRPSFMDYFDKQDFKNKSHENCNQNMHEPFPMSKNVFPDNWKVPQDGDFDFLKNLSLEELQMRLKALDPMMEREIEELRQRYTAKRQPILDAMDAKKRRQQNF

Sample 1
SMILES: CC(=O)N1CCC(c2ccc(C(=O)NC(=N)N)cc2C(F)(F)F)CC1
Read-out: cell-free assay
Technique: competition with immobilised ligand
Tested at: 1 µM
The remaining binding was 98% (DCLK3 (Homo sapiens, UniProt Q9C098)).
The remaining binding was 100% (PAK2 (Homo sapiens, UniProt Q13177)).
The remaining binding was 82% (CDKL5 (Homo sapiens, UniProt O76039)).
It gave 84% for remaining binding (PIKFYVE (Homo sapiens, UniProt Q9Y2I7)).
It gave 96% for remaining binding (EGFR (Homo sapiens, UniProt P00533, G719S)).
For PLK2 (Homo sapiens, UniProt Q9NYY3): remaining binding read 93%.
It gave 100% for remaining binding (STK3 (Homo sapiens, UniProt Q13188)).
For HIPK1 (Homo sapiens, UniProt Q86Z02): remaining binding read 81%.

Sample 2
Compound: CN(C)CCCn1cc(C2=C(c3c[nH]c4ccccc34)C(=O)NC2=O)c2ccccc21
Read-out: enzyme activity
Action: inhibitor
Tested at: 0.5 µM
Relative to: control
The remaining activity was 93.9% (MAP3K8 (Homo sapiens, UniProt P41279)).
For HIPK3 (Homo sapiens, UniProt Q9H422): remaining activity read 102%.
The remaining activity was 95% (DYRK4 (Homo sapiens, UniProt Q9NR20)).
It gave 20.2% for remaining activity (NTRK3 (Homo sapiens, UniProt Q16288)).
For SLK (Homo sapiens, UniProt Q9H2G2): remaining activity read 45.8%.
For ROCK2 (Homo sapiens, UniProt O75116): remaining activity read 113%.
The remaining activity was 82.8% (MAP3K2 (Homo sapiens, UniProt Q9Y2U5)).
It gave 72.1% for remaining activity (PKN2 (Homo sapiens, UniProt Q16513)).
It gave 92% for remaining activity (CSNK2A2 (Homo sapiens, UniProt P19784)).
The remaining activity was 62.8% (ROS1 (Homo sapiens, UniProt P08922)).
It gave 94% for remaining activity (EGFR (Homo sapiens, UniProt P00533)).

Sample 3
Species: human
Sample: microsomes or S9
Tested at: 2 µM
Time: 0.5 h
`O=c1ccc2cnc(N[C@H]3CC[C@H](O)CC3)nc2n1C1CCCCC1` has a remaining compound of 44.8%.
`COc1c(-c2coc3cc4c(cc3c2=O)CC(OC(C)=O)C(C)(C)O4)ccc2c1C=CC(C)(C)O2` (stereo not shown) gave a remaining compound of 27.7%.
The remaining compound of `Cc1cc(C(=O)COC(=O)c2ncc(Cl)c(Cl)c2Cl)c(C)n1-c1nccs1` is reported as 14.2%.
`CCOc1ccc(OCC)c(NC(=O)c2cc(S(=O)(=O)N3CCCCC3)c[nH]2)c1` has a remaining compound of 22.1%.
With `Cn1c(=O)c2sc3c(c2n(CCN2CCCCC2)c1=O)CCCC3` the remaining compound was 72.5%.
`COc1cccc(-c2c3c(cc(OC)c2OC)C(=O)N(c2cccc(C(=O)O)c2)C3)c1` gave a remaining compound of 92.8%.
With `CC(C)(C)c1cc(O)c2o/c(=N\c3ccc(S(N)(=O)=O)cc3)c(C(N)=O)cc2c1` the remaining compound was 96%.
The remaining compound of `COc1cc(=O)n(C)cc1C(=O)N1CCc2ccccc21` is reported as 84.4%.

Further values, each from its own experiment
`C=C(F)C(=O)N1CCN(c2nc(OC[C@@H]3CCCN3C)nc3c2CCN(c2cccc4cccc(Cl)c24)C3)C[C@@H]1CC#N` has a normalized BRET of 93.9% (GTPase HRas (HRAS, Homo sapiens, UniProt P01112); binding, competitor, NanoBRET; HEK293; 625 nM).

Excerpt of the above (sample 1):
The remaining binding was 98% (DCLK3 (Homo sapiens, UniProt Q9C098)).
The remaining binding was 100% (PAK2 (Homo sapiens, UniProt Q13177)).
The remaining binding was 82% (CDKL5 (Homo sapiens, UniProt O76039)).
